Published values of several laboratories.
A part holds a random share of what one study measured. Substitutions count along the parent as printed.

Set 1
Target: CCNE2, cyclin fold, Cln2 fusion (human)
Technique: yeast growth competition, sequencing
Sample: yeast
Setting: weak parent motif
Baseline: not given
Direction: higher = stronger binding
Starting sequence: SAMHD1 docking peptide (human); ASKSRVQLFKDDP; partner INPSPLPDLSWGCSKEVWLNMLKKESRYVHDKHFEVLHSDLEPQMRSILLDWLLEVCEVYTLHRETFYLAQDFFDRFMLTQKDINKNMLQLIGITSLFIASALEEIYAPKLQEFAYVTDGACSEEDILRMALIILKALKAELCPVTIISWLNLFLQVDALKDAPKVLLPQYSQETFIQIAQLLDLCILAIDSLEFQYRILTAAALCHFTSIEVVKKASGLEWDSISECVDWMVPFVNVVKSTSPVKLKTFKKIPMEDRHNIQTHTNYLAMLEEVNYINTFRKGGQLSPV
Variant | normalised enrichment score
ASKSRVQLFTDDP [K10T] | 0.106
ASMSRVQLFKDDP [K3M] | 0.151
ASKSRVALFKDDP [Q7A] | -0.33
ASKSRVQLFKDRP [D12R] | 0.589
ASKSHVQLFKDDP [R5H] | 0.0687
ASKSRVQCFKDDP [L8C] | 0.111
AFKSRVQLFKDDP [S2F] | 0.228
ASKARVQLFKDDP [S4A] | 0.752
ASKSRVQLFKDQP [D12Q] | 0.101
ASKSRVQLFHDDP [K10H] | 0.188
ASKSRVQGFKDDP [L8G] | 0.179
ASKSRVQLWKDDP [F9W] | 0.329
ASKSRVQLQKDDP [F9Q] | 0.0569
ASKSRVQLFKDLP [D12L] | -0.0179
ASKSRVQWFKDDP [L8W] | 0.408
ASKSRVQHFKDDP [L8H] | -0.395
ASKKRVQLFKDDP [S4K] | 0.0126
ASKSRVQLFKSDP [D11S] | 0.778
ASKSCVQLFKDDP [R5C] | 0.2
ASKSRPQLFKDDP [V6P] | -0.298
ASKSRVQMFKDDP [L8M] | 0.104
ASKSRVQLVKDDP [F9V] | 0.0982
ASKSRVQLFQDDP [K10Q] | 0.108
ASKSRVQLFKMDP [D11M] | 0.368
ASKSRVQLPKDDP [F9P] | 0.164

Set 2
Target: CREB3L3, bZIP domain (human)
Technique: DHFR protein complementation
Sample: yeast
Setting: single substitutions, most at no-binding floor
Baseline: wild-type JUN-FOS pair
Direction: higher = stronger binding
Starting sequence: JUN, bZIP domain (human); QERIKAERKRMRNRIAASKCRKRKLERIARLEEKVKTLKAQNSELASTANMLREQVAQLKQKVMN; partner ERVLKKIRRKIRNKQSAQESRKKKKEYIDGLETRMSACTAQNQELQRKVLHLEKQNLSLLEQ
Variant | binding fitness
A57H | -1.48 natural log
A29T | -1.55 natural log
L31D | -1.42 natural log
A46I | -1.51 natural log
A40R | -1.41 natural log
Q55E | -1.64 natural log
S47V | -1.27 natural log
S47E | -1.32 natural log
L31T | -1.53 natural log
A49F | -1.53 natural log
K34G | -1.34 natural log
K36H | -1.48 natural log
Q55K | -1.49 natural log
Q58P | -1.15 natural log
A49C | -1.62 natural log
E44V | -1.42 natural log
L38G | -1.49 natural log
Q55H | -1.46 natural log
L31H | -1.47 natural log
E32P | -1.49 natural log

Set 3
Target: RING finger protein unkempt homolog, zinc fingers 1-6, GST-SBP tag (UNK, Homo sapiens, UniProt Q9C0B0, residues 30-357)
UniProt Q9C0B0, sequence (30-357, looked up): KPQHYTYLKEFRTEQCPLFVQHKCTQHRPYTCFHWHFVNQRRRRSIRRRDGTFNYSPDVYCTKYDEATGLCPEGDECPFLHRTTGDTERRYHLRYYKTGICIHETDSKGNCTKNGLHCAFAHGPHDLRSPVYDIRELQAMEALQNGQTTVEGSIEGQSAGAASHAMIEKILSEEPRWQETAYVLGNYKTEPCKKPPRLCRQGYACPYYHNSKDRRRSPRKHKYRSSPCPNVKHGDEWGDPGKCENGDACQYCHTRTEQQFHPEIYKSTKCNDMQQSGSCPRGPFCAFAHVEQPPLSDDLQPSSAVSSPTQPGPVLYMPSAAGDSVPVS
Technique: RNA Bind-n-Seq
Form: RNA
Sample: in vitro
Concentration: not given
Setting: RNA with constant flanks, ends assumed
Baseline: input RNA pool
Direction: higher = stronger binding
All sequences stand within: GGGAGUUCUACAGUCCGACGAUC … CAACAGAGGAUUGAGCAUCA
Sequence | bound/input enrichment
CAUCUUAGGUCAUCUUCUGUAGAAGAUGUUAAACUAAUUAUAAGCGAGGGGAGACCUACCACCGAAGUUCGAAGAUGUAGCAUGCCUUCUGUCAUUUGUGAACAUACCAAACAAUUCCAA | 0.218 ratio
CCAAUGGAACCACAAGGGACUUUAGAUAUCACUCAGCAAGAUACUGCCAAAGGUGAUCAACCCGAAAGAAUUUCUAAUGGACCUGUAUUAACUUUGGGUGGUUCAUCUGUGAGCAGUAUA | 0.182 ratio
GUCAGGGAACCGGAGCCGGGCCGCCGCGCUGUGGAGAAGCUGCGUCGGGGCGCACAGGUUAUCCGAAAUGGCUACUCCACAGUCAGUUUUCGUCUUUGCAAUCUGCAUUUUAAUGAUAAC | 0.211 ratio
UUCACACUGGAUUACAACUACCCACUUUGUGCAGUACAGGCCUUUGGCAUCGGUCUUUCCCGCUUUGACAGUAAGCUGGCGUGUGAAUGAGAGAACAGUCAGGCAGGGAGCCCUUCUCCC | 0.23 ratio
GUGGCUCACCAUGCUUCUGAAAACAACAGGAUUUUCACUUUGAAUCUAUCUGCACCGUUUAUCCGCCAGUUCUACAAGGAAUCAUUGAUGAAAGUUAUGCCUUAUGUUGAUAUACUUUUU | 0.198 ratio
AAAUUAGUGGGCAAAGAAACAUUCUAUGUUGGAGCUGCAAAGACAAAAGCGACCAUAAAUACCGACGCUAUCAGUGGUUUUGCUUAUGAAUAUACUCUGGAAAUUAAUGGGAAAAGUCUC | 0.315 ratio
UUAAUCUCAACUAAAGAUAUAGUUCUGUGGUAGCCAUUGUUUUACAAUGAAAUAACUGCAACCCGAGAAAAAAAACUGUAUAAAAACAUUAAAUUGUCAGUAUUUUUGUAAGAUUCCGUU | 0.2 ratio
UGAAGAUUCCAGAUGCUAAACAUGUAUUUACCACAUUUUAUGCUAAAACAAAAUCACUGUCCGUUAAUCCAGUGCUCUUUCCAAACCGUGAAGACUAUAUCCAUCUAAUGGGUUAUGACA | 0.152 ratio

Set 4
Target: Histone acetyltransferase KAT6A, winged helix 2, GST fusion (KAT6A, Homo sapiens, UniProt Q92794, residues 85-181)
Technique: protein binding microarray
Form: double-stranded DNA, one strand shown
Sample: in vitro
Concentration: not given
Setting: 8-mer, flanks averaged, mean of 2 arrays, mostly near background
Baseline: not given
Direction: higher = stronger binding
Construct (chain): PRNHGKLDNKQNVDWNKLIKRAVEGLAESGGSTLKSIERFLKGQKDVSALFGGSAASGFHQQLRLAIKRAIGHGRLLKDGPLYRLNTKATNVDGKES
Sequence | E-score
ATTATGGC | -0.00211
CGCGAAAG | 0.0343
ACTTTTCT | -0.172
CACTAGAC | -0.205
GAACTCTA | -0.00314
GGCTCTGA | 0.1
ACAAACGG | 0.109
CCTTCCTC | -0.0186
CTAGCAAC | 0.112
CACCAAGG | -0.123
AGCCTGAC | -0.055
CATTGAGG | -0.0975
AATTACCT | -0.169
AATCCGCG | 0.191
AAGATGAT | -0.141
CATCCAGC | 0.198

Set 5
Target: Ras GTPase-activating protein-binding protein 1, full length (G3BP1, Homo sapiens, UniProt Q13283)
UniProt Q13283, sequence (whole entry, looked up): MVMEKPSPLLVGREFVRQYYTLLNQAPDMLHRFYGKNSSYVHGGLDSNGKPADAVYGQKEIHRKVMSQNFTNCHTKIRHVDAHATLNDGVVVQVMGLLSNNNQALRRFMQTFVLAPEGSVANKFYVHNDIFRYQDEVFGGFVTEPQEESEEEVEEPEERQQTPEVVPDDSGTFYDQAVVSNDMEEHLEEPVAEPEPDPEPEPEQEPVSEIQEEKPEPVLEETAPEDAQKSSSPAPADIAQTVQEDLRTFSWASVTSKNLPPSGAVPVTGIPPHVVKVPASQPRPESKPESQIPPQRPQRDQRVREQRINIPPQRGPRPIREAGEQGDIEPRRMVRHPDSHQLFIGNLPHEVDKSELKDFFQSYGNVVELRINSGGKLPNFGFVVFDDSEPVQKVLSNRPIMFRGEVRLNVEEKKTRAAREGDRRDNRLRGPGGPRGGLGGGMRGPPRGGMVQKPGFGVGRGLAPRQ
Technique: RNA Bind-n-Seq
Form: RNA
Sample: in vitro
Concentration: 200 nM
Setting: whole 134-nt RNA, ends assumed
Added: 150 mM KCl
Baseline: input library
Direction: higher = stronger binding
All sequences stand within: GGGAGUUCUACAGUCCGACGAUC … UGGAAUUCUCGGGUGUCAAGG
Sequence | log2 enrichment
GCAGGAAUUAAAAACAAAUGGAAAUGCUUCGGAUAGUGGCAGGGGUGGGGGUUGCUAAGGAAAGGGUGGGAUGGGAGUGGGUAAAGAGUU | 1.37
UCCUGUGCUACACAUCGUAUGUACCGAAUCGGGAAAGGGAAAAAAAGGGUUUUUUUGGGAAAGUAUUAUGUUACGCCGUUCGGAUCUGCA | -0.431
UCAAGUCCUGUGCUACACAUCGUAUGUACCGAAUCGGUUUUUGGAAAGGUUUGGAAAGUAUUAUGUUACGCCGUUCGGAUCUGCACUUCC | -1.18
CUCAAGUCCUGUGCUACACAUCGUAUGUACCGAAUCGGAAGGGAAGGGGAAGGGAAAGUAUUAUGUUACGCCGUUCGGAUCUGCACUUCC | 0.715
AAGUCCUGUGCUACACAUCGUAUGUACCGAAUCGGGGCCCGGGCCCGGGGCCCGGGGAAAGUAUUAUGUUACGCCGUUCGGAUCUGCACU | -1.16
CAAGUCCUGUGCUACACAUCGUAUGUACCGAAUCGGAAAAAAAGGUUUUUGGAGGAAAGUAUUAUGUUACGCCGUUCGGAUCUGCACUUC | -1.21
ACCAUGCAGGUGGGCAUCUUUGGGAAGUGGGGCAAGGGGGGGAUAGGGAGGGGGGUUACACUUUGGGAACAGGUGGUCCCAGGUCGUUUC | 1.31
UUGCGCCUGUCCCGGGUGAAGUGUGUCGGCCUCUCCGCACGCACCACGGAGACCAGCAGUGCAGUCAUGUGCCUGGACCUUGCAGCUUCC | -0.265
UAACUUUAGAGGAGGAUCUGAUGGAUAUGGCAGUGGACGUGGAUUUGGGGAUGGCUAUAAUGGGUAUGGAGGAGGACCUGCAGGUGGCAA | -0.00905

Mixed results
Substance | target | assay | test system | setting | scale | endpoint | result
PhoQ, residues 284 288 289 292 302 303 AGGCYF | PhoP, residues 12 14 15 18 19 TPLRH (Escherichia coli, UniProt P23836) | Sort-seq, refers to: YFP reporter | E. coli | PhoQ-PhoP variant library, added: 10 µM Mg2+ | baseline: high Mg2+ state, higher = stronger signaling | fold induction | 3.45

Repeated from above (set 4):
Sequence | E-score
AGCCTGAC | -0.055
CATTGAGG | -0.0975
AATTACCT | -0.169
AATCCGCG | 0.191
AAGATGAT | -0.141
